Results collected from several papers.
Every numbered part comes from another study and shows a few of its results, in no order.

Sample 1 — method: RNA Bind-n-Seq; form: RNA; matrix: in vitro; tested at: 200 nM; notes: whole 134-nt RNA, ends assumed; with: 150 mM LiCl; reference: input library; reading: higher = stronger binding; each molecule: 7-deaza-guanosine replaces G
Target: Fragile X messenger ribonucleoprotein 1, C-terminal low-complexity region (Fmr1, Mus musculus, UniProt P35922)
Constant ends, left off below: GGGAGUUCUACAGUCCGACGAUC … UGGAAUUCUCGGGUGUCAAGG
Sequence | log2 enrichment
AAGUCCUGUGCUACACAUCGUAUGUACCGAAUCGGGUUUGGGUUUGGGGUUUGGGGAAAGUAUUAUGUUACGCCGUUCGGAUCUGCACUU | -1.58
UCAAGUCCUGUGCUACACAUCGUAUGUACCGAAUCGGGAAAGGGUGGGAAAGGGAAAGUAUUAUGUUACGCCGUUCGGAUCUGCACUUCC | -1.25
UCAAGUCCUGUGCUACACAUCGUAUGUACCGAAUCGGGAAAGGGAAAGGGUGGGAAAGUAUUAUGUUACGCCGUUCGGAUCUGCACUUCC | -1.23
CAAGUCCUGUGCUACACAUCGUAUGUACCGAAUCGGUUUUUGGUGGAAAAAAAGGAAAGUAUUAUGUUACGCCGUUCGGAUCUGCACUUC | -1.42
UCAAGUCCUGUGCUACACAUCGUAUGUACCGAAUCGGGAGGGAAAAAGGGAGGGAAAGUAUUAUGUUACGCCGUUCGGAUCUGCACUUCC | -0.506
CCUGUGCUACACAUCGUAUGUACCGAAUCAAAGUGUGUGUGUGUAAAGUGUGUGUGUAAAAAAGUAUUAUGUUACGCCGUUCGGAUCUGC | -1.68

Sample 2 — method: universal PBM; form: double-stranded DNA, one strand shown; matrix: in vitro; tested at: not given; reading: higher = stronger binding
Target: Sal-like protein 4, full length isoform B (SALL4, Homo sapiens, UniProt Q9UJQ4-2, residues 1-616)
Notes: 8-mer, flanks averaged, mean of replicates
Sequence | E-score
AAATTTAA | 0.341
CTTAGCCA | 0.0468
AAAGAGCT | -0.167
CGTCCACG | -0.179
CGTTGCAA | -0.09
AGATTCCG | -0.0107
CGGCAAGA | -0.0292
AGCGGCCT | -0.345
ATGCCAAG | 0.0744
CCTTCAGC | -0.256
CGTTGGTC | -0.18
GCCCCGGA | -0.42
ATAAGTAA | 0.366
TTGAGCAA | 0.0417
AATTACAA | 0.345
CGTCCTGC | -0.2

Sample 3 — method: protein-binding microarray; form: double-stranded DNA, one strand shown; matrix: in vitro; tested at: 940 nM top; notes: 60-bp whole probe; with: salmon DNA 0.4 mg/ml; reference: random background probes; reading: higher = stronger binding; constant ends, left off below: GCCTAGCAC … GTCTTGATTCGCTTGACGCTGCTG
Target: Interferon regulatory factor 5, full length, phosphomimetic (IRF5, Homo sapiens, UniProt Q13568-2, residues 1-514, S451D/S453D/S456D/S462D)
Sequence | fitted relative affinity
GACGGTATCGCTATCGGGACGTGCTAG | 3.74 z-score
TTAGGTTTCGGACTGGTTTAGTGCTAG | 7.15 z-score
TTAGATTTCGGGTTTCGATGAGTGCTA | 4.52 z-score
TTAAGTATCGGGACTGGGTTAGTGCTA | 3.93 z-score
TAAGGTCTCGGTATCGGTTAGTGCTAG | 6.3 z-score
TTAGGTTTCTACACTGGGTTAGTGCTA | 2.3 z-score
GCCGATCTCAGTCTCGAGACGTGCTAG | 1.55 z-score
TTATATTCCAGTTTCGATTAGTGCTAG | 9.16 z-score
TTAGGTATCGACTTTCGGTTGGTGCTA | 6.25 z-score
GATGAAGATGTAGAACTTTTGTGCTAG | -0.249 z-score
TTAGGTTTCGGTTCCCGTTAGTGCTAG | 15.3 z-score
TTAGGACTGGTCACTGGGTTAGTGCTA | -0.658 z-score
TCAAGTTTACCCATCTCACTGTGCTAG | 0.559 z-score
GCTCCTTCCCCTCTAGGTCTGTGCTAG | 0.383 z-score
TTAGGTCTCTGACTGGGTTAGTGCTAG | -0.156 z-score
GACGGACTGGACTTCCGGGACGTGCTA | -0.428 z-score
TCATGTTTGGTCCTGAAACTGTGCTAG | 0.303 z-score

Sample 4 — method: RNA Bind-n-Seq; form: RNA; matrix: in vitro; tested at: 365 nM; reference: no-protein control; reading: higher = stronger binding
Target: RNA binding protein fox-1 homolog 2, RRM domain, GST-SBP tag (RBFOX2, Homo sapiens, UniProt O43251-10, residues 100-194)
Notes: natural RNA segment, single round, ends assumed
Constant ends, left off below: GGGAGUUCUACAGUCCGACGAUC … UGGAAUUCUCGGGUGCCAA
Target sequence (chain): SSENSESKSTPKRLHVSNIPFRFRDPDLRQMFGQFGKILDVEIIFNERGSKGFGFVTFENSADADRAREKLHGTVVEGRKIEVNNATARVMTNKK
Sequence | RBNS enrichment (R)
CAGUGCAAGCUACGGACCACAGUUAGGCUGCCUCACCUCUCAGGCGGCCAGCAGCAGCUCUGCUCAGUCUUUAUUCCCACACCAAAGGGCGAGCAGGUGUGACAUUGGCU | 0.438
UGCUUGGAGCUAUCUCUACAUUUAGUGAAUUUCUUGUAAAACACUUUGAGAUACAUUGUUUUGGAAAUUCAUACAAUUUUCUCAACAUUGUAUUCUACUGACAGGAUGCG | 0.284
UGGUCUUGACUAAGCAAUAAGAGCCUCAGAGUUGAUUGAAUUUUAAGGUCCCUUUCUGGCUUCUUGGUUCUCCAUGUGACCAAAGCCCAGUGUGGCUUCAUGGGAGCCCU | 0.256
AGCCACCCUUCCUCUUCUGGACCCAGCCUGGUCUGCACUGCAACCUCCACCAGGACCAGGAUCCUGGGCCACAGGCUGGGAUGGUCCUUCCAAGAAAGGGUCAUUUCAGA | 0.389
UUAGAUUUUCUGUCUUAAACCAUUGGAAGCAAAACGGUUUUCCCAUGACAUUCUGGCCUUGGACAGAUUCUGUUGUCCUCGACGCGUCUCUUUAUAAAGUGGUAAAAGCC | 0.285
UUUGACCCCACCCCCAACCCCAAUUGGGUCACGAACAACAGGUUGAGAACUGCUGCUCUAAGGCCUUCUGUAGAAGUCCAUUCCUAUCACAGUAAGGCUGAACUCUGAAA | 0.426
GUGGCAGUCACGUGGCUGACUCCUGUCUUGGGCCAUAGGCCUAGAUCCCUACCCAUGGGAAUGCAGAGCCUUCUCCGCAUGUGUGCGUGCAGCUGUGUCUUAUGUAUUUA | 1.25
UGGAAGAGGAGUCCUGAUCAGGCCUCACCCCUCCCCUGGGACUUUCCCACCCAGGAAAGGAGGACCAGUCAGGAUGAGGCCCCGCCUUUUCCCCCACCCUCCCAUGAGAC | 0.339
AUACAUAGUGUCGAGCUUUAGAUUGGUAUGAAAUUAAACAGCAAUGCAAAUAGAUUUAAUUCCUAUUUACUUUAAGAAUGAAAAACAAUGUUCAUUUUCCUACCUAAACA | 1.4
CUCCCUGGACCAUAGAAGAGAUGUCACUCCUCUCUGGGUUUUAGUGGAGGGAGGGAGGCCUUCCAUUUAGGGCAAGAGCCAGGCAUAAACUCCCUUCCAGAAUUUGUAGC | 0.345
GGUCAGUUCAAAGUUGCAUUUGGGAUUCUAUGUCUUCCAAAUUGAACCGUCUGUAAUCAGUACAGCCACCCAAAGGGCUAUAGUUCUCAAUUAAAAUGCAAAUGGAUAUC | 0.672
CAGUGUCUCCUAACAAACUAGUACUGGACUUACAGUACUGCCAAAUCUUUGUUAAGUUUCAUGAUGUGUUAGUACACUGUUCUAUUGCUGUAAAGAGACACCAUGACAAA | 0.312

Sample 5 — method: aptamer microarray, sandwich; form: DNA with 2'F-ANA; matrix: in vitro; tested at: 200 nM; with: Cy3 exosite-II aptamer, 400 nM; reading: higher = stronger binding; sequence: GGTTGGTGTGGTTGG
Target: Prothrombin, mature alpha-thrombin (F2, Homo sapiens, UniProt P00734)
Notes: whole 15-mer aptamer, many near background
Modification | mean fluorescence intensity [a.u.]
2'F-ANA at 2 4 5 6 8 9 10 11 13 14 | 66.1
2'F-ANA at 1 4 6 7 8 9 12 13 14 | 59.2
2'F-ANA at 3 4 8 9 12 14 15 | 377
2'F-ANA at 4 5 6 9 10 12 13 | 57.7
2'F-ANA at 1 2 4 6 8 9 10 14 15 | 50.4
2'F-ANA at 1 2 3 6 7 8 9 15 | 227
2'F-ANA at 1 2 3 4 6 8 9 11 12 13 14 15 | 64
2'F-ANA at 2 4 5 6 8 9 10 12 14 | 47.4
2'F-ANA at 2 3 4 5 6 7 9 10 12 14 15 | 49.2
2'F-ANA at 1 3 6 10 11 14 15 | 67
2'F-ANA at 4 5 8 9 11 12 14 15 | 46.7
2'F-ANA at 6 7 10 11 12 13 14 15 | 105
2'F-ANA at 5 6 7 9 10 12 13 15 | 72.5
2'F-ANA at 2 4 7 8 9 10 | 252
2'F-ANA at 1 2 4 5 6 9 10 12 13 14 15 | 50.9
2'F-ANA at 1 2 3 7 8 9 13 14 15 | 72.3
2'F-ANA at 5 8 9 10 12 13 | 48.5
2'F-ANA at 1 8 9 11 14 | 53.9
2'F-ANA at 3 4 5 8 10 12 13 | 49.2
2'F-ANA at 2 4 7 9 11 12 15 | 440
2'F-ANA at 1 2 3 4 6 11 13 15 | 100

Some of these lines once more (sample 4):
Sequence | RBNS enrichment (R)
UGGUCUUGACUAAGCAAUAAGAGCCUCAGAGUUGAUUGAAUUUUAAGGUCCCUUUCUGGCUUCUUGGUUCUCCAUGUGACCAAAGCCCAGUGUGGCUUCAUGGGAGCCCU | 0.256
AGCCACCCUUCCUCUUCUGGACCCAGCCUGGUCUGCACUGCAACCUCCACCAGGACCAGGAUCCUGGGCCACAGGCUGGGAUGGUCCUUCCAAGAAAGGGUCAUUUCAGA | 0.389
UUAGAUUUUCUGUCUUAAACCAUUGGAAGCAAAACGGUUUUCCCAUGACAUUCUGGCCUUGGACAGAUUCUGUUGUCCUCGACGCGUCUCUUUAUAAAGUGGUAAAAGCC | 0.285
UUUGACCCCACCCCCAACCCCAAUUGGGUCACGAACAACAGGUUGAGAACUGCUGCUCUAAGGCCUUCUGUAGAAGUCCAUUCCUAUCACAGUAAGGCUGAACUCUGAAA | 0.426
GUGGCAGUCACGUGGCUGACUCCUGUCUUGGGCCAUAGGCCUAGAUCCCUACCCAUGGGAAUGCAGAGCCUUCUCCGCAUGUGUGCGUGCAGCUGUGUCUUAUGUAUUUA | 1.25
